{"data": "Assay results from different studies", "note": "Each line is one published result; not all experiments were run side by side. Several values in a cell are separate wells, animals, samples, runs or records. Numbers after ± are the reported error."}
{"SMILES": "CNS(=O)(=O)Nc1nccc(Cc2c(C)c3ccc(Oc4ncccc4F)cc3oc2=O)c1F", "cell line": "U-373 MG", "assay": "cell viability, inhibitor, CellTiter-Glo", "setting": "7 days", "measurement": "IC50", "result": "> 1000 nM"}
{"SMILES": "O=C(Nc1nnc2c1c(-c1ccc(Cl)cc1)nc1sc(=Cc3ccco3)c(=O)n12)c1ccccc1 (mixture of isomers)", "cell line": "A498", "assay": "SRB", "setting": "10 µM, NCI60 single-dose screen", "how to read": "reference: untreated", "measurement": "cell growth", "result": "78.8%"}
{"SMILES": "[Cl-].[Cl-].[Ru+2].c1ccc(-c2ccccn2)nc1.c1ccc(-c2ccccn2)nc1.c1ccc2cc3nc4c5cccnc5c5ncccc5c4nc3cc2c1", "cell line": "SK-MEL-28", "assay": "photocytotoxicity", "setting": "light 633 nm, oxygen 1%", "measurement": "EC50", "result": "133 ± 6 µM"}
{"SMILES": "O=C(C[Se]C(=O)c1cccnc1Nc1cccc(C(F)(F)F)c1)Nc1cccc(C(F)(F)F)c1", "cell line": "NCI60 prostate subpanel (PC-3, DU-145)", "assay": "cell growth", "setting": "10 µM, 48 h, one-dose", "measurement": "mean growth percent", "result": "-89.8%"}
{"SMILES": "N#Cc1cccc(/C=C/C(=O)c2ccc(O)cc2)c1", "cell line": "U-87 MG", "assay": "item: HSPA4L", "setting": "concentration not given", "how to read": "reference: untreated", "measurement": "fold change", "result": 175}
{"SMILES": "Cc1cccc(-c2cccc(C)n2)n1.Cc1cccc(-c2cccc(C)n2)n1.F[P-](F)(F)(F)(F)F.F[P-](F)(F)(F)(F)F.[Ru+2].c1ccc2c(c1)Cc1cc(-c3nc4c5cccnc5c5ncccc5c4[nH]3)ccc1-2", "cell line": "SK-MEL-28", "assay": "cell viability", "setting": "1% O2, together with: green light 523 nm, 100 J/cm2", "measurement": "EC50", "result": "23.6 ± 1.1 µM"}
{"SMILES": "CCN(CC)CC(=O)Nc1cccc(-n2cc(-c3ccc4ccc(-c5cn(-c6cccc(NC(=O)CN(CC)CC)c6)nn5)cc4c3)nn2)c1", "cell line": "RCC4", "assay": "PCR angiogenesis array, item: ID1", "setting": "5 x IC50, 6 h, normoxia", "how to read": "reference: untreated", "measurement": "fold regulation", "result": 1.12}
{"SMILES": "Cc1cccc(-c2cccc(C)n2)n1.Cc1cccc(-c2cccc(C)n2)n1.F[P-](F)(F)(F)(F)F.F[P-](F)(F)(F)(F)F.[Ru+2].c1ccc(-c2nc3c4cccnc4c4ncccc4c3[nH]2)cc1", "cell line": "SK-MEL-28", "setting": "1% O2, together with: green light 523 nm, 100 J/cm2", "how to read": "reference: dark over light EC50", "measurement": "phototoxicity index", "result": 2}
{"SMILES": "O=C1C(Cl)=C(Cl)C(=O)c2c(O)ccc(O)c21", "cell line": "HuCC-A1", "assay": "MTT", "how to read": "reference: IC50 MRC-5 over IC50 HuCC-A1", "measurement": "selectivity index", "result": 1.1}
{"SMILES": "O=C(C[Se]C(=O)c1cc2ccccc2s1)Nc1cccc(C(F)(F)F)c1", "cell line": "NCI60 prostate subpanel (PC-3, DU-145)", "assay": "cell growth, inhibitor", "setting": "five-dose", "measurement": "GI50", "result": "1430 nM"}
{"SMILES": "Cn1ncc2cc(-c3cncc(Cl)c3N3CCC4(CCNC4=O)CC3)ccc21", "cell line": "LS174T", "assay": "gene expression, microarray, item: PADI1 mRNA", "setting": "concentration not given, 4 h", "how to read": "reference: untreated cells", "measurement": "log2 fold change", "result": 1.36}
{"SMILES": "CN1CCCNC(=O)c2cccc(c2)C(=O)NCCCN(C)CCCNc2cccc3c2C(=O)c2cccc(c2C3=O)NCCC1", "cell line": "SAS", "assay": "RNA-Seq, item: GVQW2 mRNA", "setting": "1 µM, 6 h", "how to read": "reference: untreated cells", "measurement": "log2 fold change", "result": 2.09}
{"SMILES": "CO[C@@H]1[C@@H](OC(N)=O)[C@@H](O)[C@H](Oc2ccc3c(O)c(NC(=O)c4ccc(O)c(CC=C(C)C)c4)c(=O)oc3c2C)OC1(C)C", "cell line": "DLD-1 BRCA2-/-", "setting": "250 µM, replicate B", "how to read": "reference: untreated", "measurement": "colony survival", "result": "0.312%"}
{"SMILES": "COC(=O)c1cc(NC2=NC(=O)C(=Cc3ccc(C)cc3)S2)ccc1OC(C)=O", "cell line": "MCF7", "assay": "GC-MS, item: Lactic acid", "setting": "1 µM", "how to read": "reference: DMSO", "measurement": "metabolite level", "result": "-0.19 fold change"}
{"SMILES": "CC[C@@H](C)[C@@H](NC(=O)[C@@H](Cc1ccc(O)cc1)NC(=O)[C@H]1CCCN1C(=O)[C@@H](CCCNC(=N)N)NC(=O)[C@H](N)Cc1c[nH]cn1)C(=O)N[C@H](C)C(=O)N[C@H](Cc1c[nH]cn1)C(=O)NCC(=O)NCC(=O)NCC(=O)N[C@@H](CCCCNC(=O)CCCC[C@@H]1SC[C@@H]2NC(=O)N[C@@H]21)C(N)=O", "cell line": "HEK293T-OFP cells", "assay": "flow cytometry", "setting": "concentration not given, together with: biotin-labelled peptide", "measurement": "binding rate", "result": "0.25% and 0.39% and 0.4%"}
{"SMILES": "CN(C)C(=O)c1cc2cnc(Nc3ccc(N4CCNCC4)cn3)nc2n1C1CCCC1", "cell line": "human neutrophils", "assay": "Fluo-3/AM fluorescence", "setting": "10 µM, together with: fMLF 0.1 µM", "measurement": "peak intracellular calcium", "result": "290 ± 9.56 nM"}
{"SMILES": "COc1ccc2c(c1)c(CC(=O)[Se]CC(=O)Nc1cccc(C(F)(F)F)c1)c(C)n2C(=O)c1ccc(Cl)cc1", "cell line": "NCI60 prostate subpanel (PC-3, DU-145)", "assay": "cell growth, inhibitor", "setting": "five-dose", "measurement": "GI50", "result": "1670 nM"}
{"SMILES": "Cc1cc(Cl)cc(-c2ccnc3cc(CN4C(=O)C5C(C4=O)C5(C)C)sc23)c1C[C@@H]1CNCCO1 (stereo partly shown)", "cell line": "CHP-212 resistant subline R3", "assay": "annexin V/PI flow cytometry", "setting": "0.3 µM, 48 h", "measurement": "viable cells", "result": "89.6% and 88% and 81.6%"}
{"SMILES": "Cc1ncsc1-c1ccc(C(C)NC(=O)C2CC(O)CN2C(=O)C(NC(=O)CCCCCCCCCCN2CCCC(Nc3ncc(Cl)c(Nc4ccccc4S(=O)(=O)C(C)C)n3)C2)C(C)(C)C)cc1 (stereo not shown)", "cell line": "22Rv1", "assay": "RNA-seq, item: SSTR5 mRNA", "setting": "concentration not given", "how to read": "reference: DMSO", "measurement": "log2 fold change", "result": -1.67}
{"SMILES": "CC(=O)Oc1ccccc1C(=O)[Se]CC(=O)Nc1cccc(C(F)(F)F)c1", "cell line": "NCI60 prostate subpanel (PC-3, DU-145)", "assay": "total growth inhibition, inhibitor", "setting": "five-dose", "measurement": "mean TGI", "result": "13.3 µM"}
{"SMILES": "COc1ccc(NC(=O)c2ccc3[nH]c(-c4ccc(N(C)C)cc4)nc3c2)cn1", "cell line": "HUVEC primary", "assay": "Caspase-Glo luminescence", "setting": "8 µM, 16 h, unit not given", "how to read": "reference: DMSO", "measurement": "caspase-3/7 activity", "result": 0.699}
{"SMILES": "COc1ccccc1-c1ccncc1C(=O)Nc1nnc(OCc2ccc(Cl)cc2)s1", "cell line": "DLD-1 parental", "setting": "8 µM, mean of replicates", "measurement": "colony count", "result": "70.5 and 80.5"}
{"SMILES": "CSCC[C@H](NC(=O)[C@H](CCC(N)=O)NC(=O)[C@H](CCCCN)NC(=O)[C@H](CCCNC(=N)N)NC(=O)[C@H](Cc1ccc(O)cc1)NC(=O)[C@H](CCCNC(=N)N)NC(=O)[C@H](CO)NC(=O)[C@H](Cc1ccc(O)cc1)NC(=O)[C@H](CO)NC(=O)[C@H](CC(=O)O)NC(=O)[C@@H](NC(=O)[C@@H](N)Cc1ccccc1)[C@@H](C)O)C(=O)N[C@@H](C)C(=O)N[C@H](C(=O)N[C@@H](CCCCN)C(=O)N[C@@H](CCCCN)C(=O)N[C@@H](Cc1ccc(O)cc1)C(=O)N[C@@H](CC(C)C)C(=O)N[C@@H](C)C(=O)N[C@@H](C)C(=O)N[C@H](C(=O)N[C@@H](CC(C)C)C(=O)NCC(=O)N[C@@H](CCCCN)C(=O)N[C@@H](CCCNC(=N)N)C(=O)N[C@@H](Cc1ccc(O)cc1)C(=O)N[C@@H](CCCCN)C(=O)N[C@@H](CCC(N)=O)C(=O)N[C@@H](CCCCn1cc(C[C@H](NC(=O)CNC(=O)[C@H](CO)NC(=O)[C@H](CCCNC(=N)N)NC(=O)[C@H](CO)NC(=O)[C@H](CC(C)C)NC(=O)[C@H](CC(C)C)NC(=O)CNC(=O)[C@H](C)NC(=O)[C@H](CC(C)C)NC(=O)[C@H](CCCNC(=N)N)NC(=O)[C@H](Cc2c[nH]cn2)NC(=O)[C@@H](NC(=O)[C@@H](N)C(C)C)[C@@H](C)O)C(=O)N[C@H](C(=O)N[C@H](C(=O)N[C@@H](CCCCN)C(=O)N[C@@H](CC(N)=O)C(=O)N[C@@H](CC(N)=O)C(=O)N[C@@H](Cc2ccccc2)C(=O)N[C@H](C(=O)N2CCC[C@H]2C(=O)N[C@H](C(=O)N[C@@H](CC(N)=O)C(=O)N[C@H](C(=O)NCC(=O)N[C@@H](CO)C(=O)N[C@@H](CCCCN)C(=O)N[C@@H](C)C(=O)N[C@@H](Cc2ccccc2)C(N)=O)C(C)C)[C@@H](C)O)C(C)C)C(C)C)C(C)C)nn1)C(=O)N[C@H](C(=O)N[C@@H](CCCCN)C(=O)N[C@@H](CC(N)=O)C(=O)N[C@@H](CCCCN)C(N)=O)C(C)C)C(C)C)C(C)C", "cell line": "transfected COS-7 cells", "assay": "cAMP accumulation, antagonist", "setting": "together with: PACAP-27", "measurement": "pA2", "result": 5.59}
{"SMILES": "CO[C@@H]1[C@@H](OC(=O)c2ccc(C)[nH]2)[C@@H](O)[C@H](Oc2ccc3c(O)c(NC(=O)c4c[nH]c(C(=O)Nc5c(O)c6ccc(O[C@@H]7OC(C)(C)[C@H](OC)[C@@H](OC(=O)c8ccc(C)[nH]8)[C@H]7O)c(C)c6oc5=O)c4C)c(=O)oc3c2C)OC1(C)C", "cell line": "HaCaT Tet-On cells, uninduced", "setting": "15 µM", "how to read": "reference: DMSO", "measurement": "cell number", "result": "17%"}
{"SMILES": "CCC(=CCc1c(O)cc2c(c1O)C(=O)CC(c1ccc(O)cc1)O2)CC (stereo not shown)", "cell line": "HeLa", "assay": "cell growth or viability, MTT", "setting": "3.125 µM, 48 h", "measurement": "inhibition", "result": "11.1%"}
{"SMILES": "CC(C)c1ccc(N(C)c2ccc3c(c2)OCC[C@H]3CNc2cnccc2C(=O)O)cc1", "cell line": "NCI-H1436", "assay": "cell viability, CellTiter-Glo", "setting": "7 days", "measurement": "IC50", "result": "8.75 nM"}
{"SMILES": "Cc1cc(NC2CCN(C)CC2)ccc1-c1cc2c(N3CCC[C@H](C(=O)NCc4ccc(OC(F)(F)F)cc4)C3)ncnc2[nH]1", "cell line": "NCI-H3122", "assay": "cell growth or viability, MTT", "setting": "5 µg/mL, 72 h", "measurement": "inhibition", "result": "87.7%"}
{"SMILES": "O=C(N[C@@H](Cc1ccc(OCCCCC2CCNCC2)cc1)C(=O)O)c1nc2ccccc2o1.O=C(O)C(F)(F)F", "cell line": "platelets", "assay": "impedance aggregometry", "system": "human, diluted whole blood", "setting": "25 nM, together with: ADP", "how to read": "reference: untreated", "measurement": "ADP-induced aggregation", "result": "0.994 and 1.2 and 0.943 and 0.936 and 0.892"}
{"SMILES": "O=C(N1CCCC1)n1cc(-c2ccc(-c3ccccc3)cc2)nn1", "cell line": "mouse T cells", "assay": "N-terminal labelling proteomics, item: NIBAN N-terminal peptides", "setting": "0.001 µM, 6 h", "how to read": "reference: DMSO", "measurement": "SILAC ratio", "result": 1.3}
{"SMILES": "O=C(C[Se]C(=O)c1cc2ccccc2o1)Nc1cccc(C(F)(F)F)c1", "cell line": "NCI60 breast subpanel mean", "assay": "cell growth", "measurement": "TGI", "result": "4.13 µM"}
{"SMILES": "CCN(C(=O)c1cc(F)ccc1Oc1nncnc1N1CCC2(C1)CN([C@H](CCCN(C)CCOC)C(C)C)C2)C(C)C", "cell line": "RD", "system": "muscle", "setting": "72 h", "measurement": "GI50", "result": "> 10000 nM"}
{"note": "For quick reference, copied from above:"}
{"SMILES": "COC(=O)c1cc(NC2=NC(=O)C(=Cc3ccc(C)cc3)S2)ccc1OC(C)=O", "cell line": "MCF7", "assay": "GC-MS, item: Lactic acid", "setting": "1 µM", "how to read": "reference: DMSO", "measurement": "metabolite level", "result": "-0.19 fold change"}
{"SMILES": "CC[C@@H](C)[C@@H](NC(=O)[C@@H](Cc1ccc(O)cc1)NC(=O)[C@H]1CCCN1C(=O)[C@@H](CCCNC(=N)N)NC(=O)[C@H](N)Cc1c[nH]cn1)C(=O)N[C@H](C)C(=O)N[C@H](Cc1c[nH]cn1)C(=O)NCC(=O)NCC(=O)NCC(=O)N[C@@H](CCCCNC(=O)CCCC[C@@H]1SC[C@@H]2NC(=O)N[C@@H]21)C(N)=O", "cell line": "HEK293T-OFP cells", "assay": "flow cytometry", "setting": "concentration not given, together with: biotin-labelled peptide", "measurement": "binding rate", "result": "0.25% and 0.39% and 0.4%"}
{"SMILES": "CN(C)C(=O)c1cc2cnc(Nc3ccc(N4CCNCC4)cn3)nc2n1C1CCCC1", "cell line": "human neutrophils", "assay": "Fluo-3/AM fluorescence", "setting": "10 µM, together with: fMLF 0.1 µM", "measurement": "peak intracellular calcium", "result": "290 ± 9.56 nM"}
